Assay results of several laboratories.
Each line is one published result; not all experiments were run side by side. ± marks the error that the study gave.

| SMILES | assay | test system | setting | tissue uptake [%ID/g] |
| --- | --- | --- | --- | --- |
| CCCC[C@H](NC(=O)CNC(=O)CNC(=O)CN1CCN(CC(=O)O)CCN(CC(=O)O)CC1)C(=O)N[C@H]1CC(=O)NCCCC[C@@H](C(N)=O)NC(=O)[C@H](Cc2c[nH]c3ccccc23)NC(=O)[C@H](CCCNC(=N)N)NC(=O)[C@@H](Cc2ccccc2)NC(=O)[C@H](Cc2c[nH]cn2)NC1=O [gallium-67 labelled] |  | female C57 mice, B16/F1 melanoma, lung | intravenous, 0.037 MBq, 2 h | 0.54 ± 0.04 |
| NC12CNCCNCC(NCc3ccc(CNC(=O)CCCC(=O)NCc4ccc(-c5nncnn5)cc4)cc3)(CNCCNC1)CNCCNC2.[64Cu+2] |  | athymic nude mice SW1222 xenograft, heart | 1 h post injection, 24 h accumulation interval, together with: huA33-TCO pretargeting | 1.81 ± 0.46 |
| O=C([O-])CN1CCN(CC(=O)[O-])CCN(CC(=O)[O-])CCN(CC(=O)[O-])CC1.[64Cu+2] |  | healthy athymic nude mice, small intestine | intravenous, 24 h | 0.44 |
| N=C(N)NCCC[C@@H]1NC(=O)[C@H](CCCCNC(=O)CC[C@H](NC(=O)[C@H]2O[C@@H](CNC(=O)c3ccc(F)cc3)[C@H](O)[C@@H](O)[C@H]2O)C(=O)NCCCC[C@@H]2NC(=O)[C@@H](Cc3ccc(O)cc3)NC(=O)[C@H](CC(=O)O)NC(=O)CNC(=O)[C@H](CCCNC(=N)N)NC2=O)NC(=O)[C@@H](Cc2ccc(O)cc2)NC(=O)[C@H](CC(=O)O)NC(=O)CNC1=O [fluorine-18 labelled] | small-animal PET | female athymic nude mice, U-87 MG xenograft, kidney | intravenous, 3.7 MBq, 120 min | 2.41 ± 0.82 |
| O=C(NCC1OC2CCC=CCCC2O1)c1ccc(COCCOCCOCC[18F])cc1 (stereo not shown) |  | female BALB/c nude mice, brain | intravenous, 60 min | 2.6 ± 0.5 |
| N=C(N)NCCC[C@H](NC(=O)CON=C[C@H](F)[C@@H](O)[C@H](O)[C@H](O)CO)C(=O)NCC(=O)N[C@@H](CC(=O)O)C(=O)O [fluorine-18 labelled] |  | nude mice U-87 MG tumour, kidney | intravenous, 2 h | 0.55 ± 0.51 |
| CN1C(=O)[C@@H](Cc2ccc(O)c(I)c2)NC(=O)CNC(=O)[C@H](Cc2ccc3ccccc3c2)NC(=O)[C@H](CCCNC(=N)N)NC(=O)[C@H]1CCCNC(=O)c1ccc(CNC(=O)CN2CCN(CC(=O)O)CCN(CC(=O)O)CCN(CC(=O)O)CC2)cc1 [lutetium-177 labelled] | measured: 177Lu radioactivity | female CB-17 SCID mice, Daudi xenograft, blood | intravenous, 0.16 nmol per mouse, 48 h | 0.02 ± 0.001 |
| N=C(N)NCCC[C@H](NC(=O)[C@@H]1CSSC[C@H](NC(=O)[C@H](Cc2ccc3ccccc3c2)NC(=O)[C@H](CCCNC(=N)N)NC(=O)[C@H](CCCNC(=N)N)NC(=S)Nc2ccc(C[C@H]3CN(CC(=O)O)CCN(CC(=O)O)CCN3CC(=O)O)cc2)C(=O)N[C@@H](Cc2ccc(O)cc2)C(=O)N[C@@H](CCCNC(N)=O)C(=O)N[C@@H](CCCCN)C(=O)N[C@H](CCCCN)C(=O)N2CCC[C@H]2C(=O)N[C@@H](Cc2ccc(O)cc2)C(=O)N[C@@H](CCCNC(=N)N)C(=O)N[C@@H](CCCNC(N)=O)C(=O)N1)C(N)=O [copper-64 labelled] | PET | tumour-bearing mice, kidney | 100 µCi, 24 h | 15.6 ± 2.16 |
| CC(F)C(=O)NC[C@@H]1O[C@H](C(=O)NCCCC[C@@H]2NC(=O)[C@@H](Cc3ccccc3)NC(=O)[C@H](CC(=O)O)NC(=O)CNC(=O)[C@H](CCCNC(=N)N)NC2=O)[C@H](O)[C@H](O)[C@H]1O (stereo partly shown) [fluorine-18 labelled] | small-animal PET | female athymic nude mice, U-87 MG xenograft, kidney | intravenous, 3.7 MBq, 60 min | 0.91 ± 0.08 |
| CCCC[C@@H]1NC(=O)[C@@H](NC(=O)[C@H](CCC(=O)O)NC(=O)CNC(=O)CN2CCN(CC(=O)O)CCN(CC(=O)O)CCN(CC(=O)O)CC2)CCCCNC(=O)C[C@@H](C(N)=O)NC(=O)[C@H](C(C)C)NC(=O)[C@@H]2CCCN2C(=O)[C@H](CCCNC(=N)N)NC(=O)CNC(=O)[C@H](Cc2c[nH]c3ccccc23)NC(=O)[C@H](CCCNC(=N)N)NC(=O)[C@@H](Cc2ccccc2)NC(=O)[C@H](Cc2c[nH]cn2)NC(=O)[C@H](CCC(=O)O)NC1=O [gallium-67 labelled] |  | normal C57 mice, pancreas | intravenous, 0.037 MBq/mouse, 4 h | 0.2 ± 0.07 |

Excerpt of the above:
| SMILES | assay | test system | setting | tissue uptake [%ID/g] |
| --- | --- | --- | --- | --- |
| N=C(N)NCCC[C@@H]1NC(=O)[C@H](CCCCNC(=O)CC[C@H](NC(=O)[C@H]2O[C@@H](CNC(=O)c3ccc(F)cc3)[C@H](O)[C@@H](O)[C@H]2O)C(=O)NCCCC[C@@H]2NC(=O)[C@@H](Cc3ccc(O)cc3)NC(=O)[C@H](CC(=O)O)NC(=O)CNC(=O)[C@H](CCCNC(=N)N)NC2=O)NC(=O)[C@@H](Cc2ccc(O)cc2)NC(=O)[C@H](CC(=O)O)NC(=O)CNC1=O [fluorine-18 labelled] | small-animal PET | female athymic nude mice, U-87 MG xenograft, kidney | intravenous, 3.7 MBq, 120 min | 2.41 ± 0.82 |
| O=C([O-])CN1CCN(CC(=O)[O-])CCN(CC(=O)[O-])CCN(CC(=O)[O-])CC1.[64Cu+2] |  | healthy athymic nude mice, small intestine | intravenous, 24 h | 0.44 |
